Experimental data gathered from unrelated publications.
Several values in a cell are separate wells, animals, samples, runs or records.
Cell line: DU-145

C#C[C@@]1(O)[C@@H](CO)O[C@@H](n2cc(F)c3c(N)ncnc32)[C@@H]1O
TGI (SRB; NCI-60 screen): 13.4 µM

CCCN1CCN(c2ccc3[nH]c(-c4ccc5[nH]c(-c6cc(OC)c(OC)c(OC)c6)nc5c4)nc3c2)CC1
growth percent (SRB; 10 µM, 48 h): 109%

Cc1cc(=O)[nH]c(=O)n1Cc1cn(-c2c3ccccc3nc3ccccc23)nn1
growth percentage (NCI60 single-dose screen; 10 µM): 15.7%

Cc1cc(=O)[nH]n1-c1nc(-c2ccc(Cl)cc2)c2c(NC(=O)c3ccccc3)nnc-2[nH]1
cell growth (SRB; 10 µM, NCI60 single-dose screen, prostate cancer; reference: untreated): 103%

CCCCN1CCN(c2ccc3[nH]c(-c4ccc5[nH]c(-c6ccc(C(F)(F)F)cc6)nc5c4)nc3c2)CC1
growth percent (SRB; 10 µM, 48 h): -95.5%

O=C(Nc1nnc2n3c(=S)[nH][nH]c3nc(-c3ccc(Cl)cc3)c1-2)c1ccccc1
cell growth (SRB; 10 µM, NCI60 single-dose screen, prostate cancer; reference: untreated): 100%

CC(=O)[C@@H]1CCCN1C(=O)[C@@H]1CCCN1C(=O)OC(C)(C)C
IC50 (cell growth, sulforhodamine B): 1.18 µM and 1.8 µM and 0.42 µM

C#C[C@@]1(O)[C@@H](CO)O[C@@H](n2cc(I)c3c(N)ncnc32)[C@@H]1O
TGI (SRB; NCI-60 screen): > 100 µM

CCOc1ccc(-c2nc3cc(-c4nc5cc(N6CCN(C)CC6)ccc5[nH]4)ccc3[nH]2)cc1OCC
growth percent (SRB; 10 µM, 48 h): 11.1%

COc1cnc2cccc(N3CCc4c(cc(Cn5ccnc5C)cc4-c4cn(C)nc4C(F)(F)F)C3=O)c2c1
EC50 (cell growth, inhibitor; 120 h): 0.0416 µM

CCCCN1CCN(c2ccc3[nH]c(-c4ccc5[nH]c(-c6ccc(OCC)c(OCC)c6)nc5c4)nc3c2)CC1
growth percent (SRB; 10 µM, 48 h): -86.2%

COc1cccc2c1C(=O)c1c(O)c3c(c(O)c1C2=O)C[C@@](O)(C(=O)CO)C[C@@H]3O[C@H]1C[C@H](N)[C@H](O)[C@H](C)O1
IC50 (cell growth, sulforhodamine B): 0.76 µM and 0.18 µM and 0.48 µM

S=C([S][Au-][P+](CCCCCC[P+]([Au-][S]C(=S)n1cccn1)(c1ccccc1)c1ccccc1)(c1ccccc1)c1ccccc1)n1cccn1
log10 TGI (cell growth, NCI-60 screen; prostate cancer): > -4

CCCCN1CCN(c2ccc3[nH]c(-c4ccc5[nH]c(-c6ccc(OCC)cc6)nc5c4)nc3c2)CC1
growth percent (SRB; 10 µM, 48 h): 68.7%

O=c1ccn(Cc2cn(-c3cc4ccccc4oc3=O)nn2)c(=O)[nH]1
growth percentage (NCI60 single-dose screen; 10 µM): 120%

Cn1cncc1C1=CN(c2ncnc3[nH]cnc23)CCS1
TGI (prostate cancer): > 200 µM

Cc1cc(C)n(-c2nc(-c3ccc(Cl)cc3)c3c(NC(=O)c4ccccc4)nnc-3[nH]2)n1
cell growth (SRB; 10 µM, NCI60 single-dose screen, prostate cancer; reference: untreated): 106%

CCCCCCCCCCCCCC(=O)N[C@@H](CCSC)C(=O)N[C@@H](C)C(=O)N[C@@H](CO)C(=O)N[C@@H](CCCNC(=N)N)C(=O)NCC(=O)N[C@@H](C)C(=O)N[C@@H](CC(C)C)C(=O)N[C@@H](CCCNC(=N)N)C(=O)N[C@@H](CCCNC(=N)N)C(=O)N[C@@H](CS)C(=O)N[C@@H](CC(C)C)C(=O)N[C@@H](CO)C(=O)N1CCC[C@H]1C(=O)NCC(=O)N[C@@H](CC(C)C)C(=O)N1CCC[C@H]1C(=O)N[C@@H](CCCNC(=N)N)C(=O)N[C@@H](CC(C)C)C(=O)N[C@@H](CC(C)C)C(=O)N[C@@H](Cc1c[nH]cn1)C(=O)N[C@@H](CC(C)C)C(=O)N[C@@H](CO)C(=O)N[C@@H](CCCNC(=N)N)C(=O)NCC(=O)N[C@@H](CC(C)C)C(=O)N[C@@H](C)C(N)=O
viability (cell viability, XTT; prostate; concentration not given): no effect

Cc1cc(-c2ccccc2)n(-c2nc(-c3ccc(Cl)cc3)c3c(NC(=O)c4ccccc4)nnc-3[nH]2)n1
cell growth (SRB; 10 µM, NCI60 single-dose screen, prostate cancer; reference: untreated): 103%

CCCCN1CCN(c2ccc3nc(-c4ccc5nc(-c6cc(OC)ccc6OC)[nH]c5c4)[nH]c3c2)CC1
growth percent (SRB; 10 µM, 48 h): 101%

O=C1NC(c2ccccc2)(c2ccccc2)C(=O)N1Cc1cn(-c2cc3ccccc3oc2=O)nn1
growth percentage (NCI60 single-dose screen; 10 µM): 98.9%

COc1cccc2c1C(=O)c1c(O)c3c(c(O)c1C2=O)C[C@@](O)(C(=O)CO)C[C@@H]3O[C@H]1C[C@H](N)[C@H](O)[C@H](C)O1
maximal cytotoxicity (WST-1; concentration not given, 72 h, highest tested concentration): 86%

O=C(Nc1nnc2n3c(nc(-c4ccc(Cl)cc4)c1-2)SCC3=O)c1ccccc1
cell growth (SRB; 10 µM, NCI60 single-dose screen, prostate cancer; reference: untreated): 101%

O=C1NC(=NCc2cccs2)S/C1=C\c1ccc2ncccc2c1
IC50 (MTS; prostate cancer): 1.38 µM

CCOC(=O)CSc1nc(-c2ccc(Cl)cc2)c2c(NC(=O)c3ccccc3)nnc-2[nH]1
cell growth (SRB; 10 µM, NCI60 single-dose screen, prostate cancer; reference: untreated): 99.8%

C#CCCCC[C@H](C)C[C@@H](C)C(=O)N1C(=O)OC[C@H]1Cc1ccccc1
IC50 (cell growth, sulforhodamine B): 133 µM and 232 µM and 200 µM

O=c1ccn(Cc2cn(-c3c4ccccc4nc4ccccc34)nn2)c(=O)[nH]1
growth percentage (NCI60 single-dose screen; 10 µM): 74.6%
